Assay results pooled from the literature.
Lines come from different studies, so protocols differ. Numbers after ± are the reported error.

Compound	target or system	assay	test system	conditions	scale	endpoint	result
COc1cc2c(Oc3ccc4[nH]c(C)cc4c3F)ccnc2cc1OCC1(N)CC1	–	–	paediatric recurrent refractory sarcoma	concentration not given, whole group	–	grade 1 or 2 Fever	14.7%
COc1ncnn2ccc(-c3cnc4nc(C)n(Cc5nnc([C@@H](C)F)o5)c4c3)c12	–	–	human patients	oral, dose not given	–	incidence of grade 1 creatinine increased	7.1%
C[C@H]1CN(c2n[nH]c3nc(N[C@H]4CC[C@H](NS(=O)(=O)CCC(F)(F)F)CC4)ncc23)CCO1	Dolichyl-diphosphooligosaccharide--protein glycosyltransferase subunit 1 (Homo sapiens, UniProt P04843)	Kinobeads competition, measured: RPN1	–	20 µM, unit not given	baseline: vehicle	remaining binding	1.15
CN(C)c1cccc2c(S(=O)(=O)N3CCN(c4ccccc4)CC3)cccc12	–	–	toluene	–	baseline: coumarin 153 in ethanol	fluorescence quantum yield	21 ± 0.8%
CC(C)[C@H](C(=O)O[C@H](C#N)c1cccc(Oc2ccccc2)c1)c1ccc(Cl)cc1	–	–	pooled human liver microsomes	–	–	CLint	0.454 mL/min/mg protein
CC[C@H](C)[C@H](NC(=O)[C@H](Cc1ccc(O)cc1)NC(=O)[C@@H]1CCCN1C(=O)[C@H](CCCNC(=N)N)NC(=O)[C@@H](N)CCCNC(=N)NC(=O)NCCCCNC(=O)CCCCCN1\C(=C/C=C/C=C/C2=[N+](CCCCS(=O)(=O)[O-])c3ccccc3C2(C)C)C(C)(C)c2cc(S(=O)(=O)O)ccc21)C(=O)N[C@@H](CC(C)C)C(=O)O	–	–	PBS with 1% BSA	–	baseline: cresyl violet perchlorate	fluorescence quantum yield	47%
CC(N)C(=O)OC(C)(C)Cc1ccc(Cl)cc1 (centres unmarked)	Plasmodium falciparum	–	W2	–	–	IC50	1.26 µM
CCC[C@@](N)(CO)CCc1ccc(OCCCCCC(C)C)cc1	–	–	dog, male hounds, plasma	oral capsule, 15 mg/kg, median	–	Tmax	8 h
Oc1ccc2c3c1O[C@H]1[C@@H](O)CC[C@@]4(O)[C@@H](C2)N(CC2CCC2)CC[C@]314	Probable G-protein coupled receptor 150 (GPR150, Homo sapiens, UniProt Q8NGU9)	β-arrestin recruitment, TANGO luminescence, measured: GPR150	–	concentration not given	baseline: basal luminescence	log2 fold change	-0.13
C=C(C)[C@@H]1CCC(C)=C[C@H]1c1c(O)cc(CCCCC)cc1O	–	–	human	750 mg, trial 17074, added: rifampicin 600 mg	–	subjects with Somnolence	13%
CC(C)C[C@@H]1NC(=O)CNC(=O)[C@H](CC(N)=O)NC(=O)[C@H](CCCNC(=N)N)NC(=O)[C@H]([C@@H](C)O)NC(=O)[C@@H]2CSSC[C@@H]3NC(=O)[C@H]([C@@H](C)O)NC(=O)CNC(=O)CNC(=O)[C@H](C(C)C)NC(=O)[C@@H]4CSSC[C@H](NC(=O)[C@H]([C@@H](C)O)NC(=O)[C@H](CSSC[C@H](NC(=O)[C@H](C(C)C)NC(=O)[C@@H]5CCCN5C1=O)C(=O)NCC(=O)N[C@@H](CCC(=O)O)C(=O)N[C@@H]([C@@H](C)O)C(=O)N4)NC(=O)CNC(=O)[C@@H]1CCCN1C(=O)[C@H](CCCCN)NC(=O)[C@H](CC(N)=O)NC3=O)C(=O)N[C@@H](CO)C(=O)N[C@@H](Cc1c[nH]c3ccccc13)C(=O)N1CCC[C@H]1C(=O)N[C@@H](C(C)C)C(=O)N2	–	HPLC	ammonium bicarbonate 0.1 M	180 µM, 7 days, pH 9.0, 37 °C, deamidation stability	–	remaining peptide	72.3 ± 4.8%
Clc1ccc(-c2cc(Cl)c(Cl)c(Cl)c2)cc1Cl	–	–	fresh water	20 °C, S30-1 sampler, 30 µm	–	log K(PDMS-water)	5.97 ± 0.06
O=C(Nc1ccccc1)C1CCN(C(=O)Oc2cccnc2)CC1	–	measured: balance disorder	healthy female humans	concentration not given, safety set, all doses pooled	–	TEAE incidence	8%
CCN(CCO)CCCC(C)Nc1ccnc2cc(Cl)ccc12 (centres unmarked)	–	–	newly diagnosed glioblastoma patients	oral, 400 mg/dose, grade 4, added: radiotherapy and temozolomide	–	anemia patients	14%
CN(C(=O)n1cnc(-c2ccc[n+]([O-])c2)c1)C1CCCCC1	Type-1 angiotensin II receptor (AGTR1, Homo sapiens, UniProt P30556)	radioligand binding, inhibitor	–	50 µM	–	inhibition	-1%
CC[C@H](C)[C@@H]1NC(=O)[C@@H]2CCCN2C(=O)[C@H](CC(C)C)NC(=O)[C@H](CC(C)C)NC(=O)CNC(=O)[C@@H](NC(=O)[C@@H](NC(=O)[C@H](CC(=O)O)NC(=O)CNC(=O)[C@@H](NC(=O)[C@H](C)NC(=O)CNC(=O)[C@H](CCCCN)NC(=O)[C@H](CC(C)C)NC(=O)[C@H](CC(C)C)NC(=O)[C@H](CCCCN)NC(=O)CNC(=O)[C@@H](NC(=O)[C@@H](N)CC(C)C)C(C)C)C(C)C)C(C)C)CSSC[C@@H](C(=O)O)NC1=O	–	RNA-seq, measured: Amd-ps4 mRNA	mouse traumatic brain injury, frontal cortex and hippocampus	dose not given	baseline: TBI plus compound vs TBI	log2 fold change	-2.22
COc1cc(Nc2ncc(F)c(Nc3ccc4c(n3)NC(=O)C(C)(C)O4)n2)cc(OC)c1OC	Neuromedin-B receptor (NMBR, Homo sapiens, UniProt P28336)	–	–	–	–	IC50	> 10 µM
O=C1Nc2cc3[nH]nc(-c4ccncc4)c3cc2CN1Cc1ccccc1	–	CTCAE v4.03	advanced solid tumour patients	intravenous, 0.45 mg/kg, schedules 1/2	–	patients with dyspnoea	0%
COc1ccc2nc3cc(Cl)ccc3c(Nc3cc(CN4CCCC4)c(O)c(CN4CCCC4)c3)c2n1	–	–	mouse, blood	intraperitoneal, 57 mg/kg	–	haematocrit	36.7%

Compound	target or system	assay	test system	conditions	scale	endpoint	result
CCN1[C@@H](C(=O)NC23CCC(C(=O)O)(CC2)CC3)[C@H](c2cccc(Cl)c2F)[C@]2(C(=O)Nc3cc(Cl)ccc32)C12CCCCC2	–	–	patients with advanced solid tumours	oral, 100 mg	–	Anemia incidence	45.5%
CO[C@H]1C[C@@H]2CC[C@@H](C)[C@@](O)(O2)C(=O)C(=O)N2CCCC[C@H]2C(=O)O[C@H]([C@H](C)C[C@@H]2CC[C@@H](OC(=O)NCCOCCOCCOCCOCCOCCOCCOCCOCCC(=O)N3CCc4cc(Cn5nc(-c6ccc7oc(N)nc7c6)c6c(N)ncnc65)ccc4C3)[C@H](OC)C2)C[C@@H](O)[C@H](C)/C=C(\C)[C@@H](O)[C@@H](OC)C(=O)[C@H](C)C[C@H](C)/C=C/C=C/C=C/1C	–	phase 1 dose escalation, measured: fatigue	advanced solid tumour patients	intravenous, 6 mg weekly, grade ≥3	–	dose-reducing adverse events	0%
O=C(Nc1ccccc1)C1CCN(C(=O)Oc2cccnc2)CC1	–	Bond-Lader VAS	healthy women	100 mg	baseline: pre-dose baseline, direction not given	change in Alert-Drowsy score	-18
COc1cc2c(cc1OC)CN(CCc1ccc(NC(=O)c3cccc4c(=O)c5cccc(OC)c5[nH]c34)cc1)CC2	–	–	CD-1 mouse, male, plasma	intraperitoneal, 10 mg/kg	–	AUC(0-t)	8520 ng·h/mL
C[C@@H](O)[C@@H](CO)NC(=O)[C@@H](CCCNC(=N)N)NC(=O)[C@@H]1CCCN1C(=O)[C@@H]1CSSC[C@H](NC(=O)[C@H](Cc2ccccc2)NC(=O)CN2CCN(CC(=O)O)CCN(CC(=O)O)CCN(CC(=O)O)CC2)C(=O)N[C@@H](Cc2ccc(O)cc2)C(=O)N[C@@H](Cc2ccccc2)C(=O)N[C@@H](CCC(N)=O)C(=O)N[C@@H](CC(N)=O)C(=O)N1 [gallium-68 labelled]	–	–	Wistar rat, healthy, Pituitary gland	intravenous, 8 MBq, 30 min	–	tissue uptake	0.54 %ID/g
CC(C)C[C@@H]1NC(=O)CNC(=O)[C@H](CC(N)=O)NC(=O)[C@H](CCCNC(=N)N)NC(=O)[C@H]([C@@H](C)O)NC(=O)[C@@H]2CSSC[C@@H]3NC(=O)[C@H]([C@@H](C)O)NC(=O)CNC(=O)CNC(=O)[C@H](C(C)C)NC(=O)[C@@H]4CSSC[C@H](NC(=O)[C@H]([C@@H](C)O)NC(=O)[C@H](CSSC[C@H](NC(=O)[C@H](CCCCN)NC(=O)[C@@H]5CCCN5C1=O)C(=O)NCC(=O)N[C@@H](CCC(=O)O)C(=O)N[C@@H]([C@@H](C)O)C(=O)N4)NC(=O)CNC(=O)[C@@H]1CCCN1C(=O)[C@H]([C@@H](C)O)NC(=O)[C@H](CC(N)=O)NC3=O)C(=O)N[C@@H](CO)C(=O)N[C@@H](Cc1c[nH]c3ccccc13)C(=O)N1CCC[C@H]1C(=O)N[C@@H](C(C)C)C(=O)N2	–	HPLC	ammonium bicarbonate	180 µM, 14 days, pH 9.0, 25 °C, deamidation stability	–	remaining peptide	81.1 ± 6.8%
COc1ccc(N2C(=O)N(c3c(C)cccc3Cl)Cc3cnc(Nc4ccc(C5CCN(C)CC5)cc4OC)nc32)nc1	Ephrin type-B receptor 4 (EPHB4, Homo sapiens, UniProt P54760)	kinase activity	–	0.5 µM	–	inhibition	97%
O=[Se](=O)([O-])[O-].[Na+].[Na+]	–	–	rat	intraperitoneal, 1 mg/kg	–	apparent clearance (CL/F)	4.72 mL/h/kg
COc1ncccc1-c1cnn2ccc(N3CCN(C(=O)OC(C)C)CC3)nc12	–	–	mouse nerve ligation model, plasma	oral, 3 mg/kg, 30 min after last dose, repeat dosing day 2	–	drug concentration	3.5 µM
Cc1cc(C(=O)NC(C)(C)COc2cccc3c2C(N)=NS(=O)(=O)N3)cc(C)n1	Escherichia coli	Ames test, confirmatory	WP2 uvrA	3333 µg/plate	baseline: solvent control	revertant ratio	0.8
CC[C@H](C)[C@H](NC(=O)[C@H](Cc1ccccc1)NC(=O)[C@H](CCC(=O)O)NC(=O)[C@H](CCCNC(=N)N)NC(=O)[C@H](C)NC(=O)[C@H](C)NC(=O)[C@H](CCC(N)=O)NC(=O)[C@H](CCC(=O)O)NC(=O)[C@H](CCC(=O)O)NC(=O)[C@H](CC(C)C)NC(=O)[C@H](Cc1ccc(O)cc1)NC(=O)[C@H](CO)NC(=O)[C@H](CO)NC(=O)[C@@H](NC(=O)[C@H](CC(=O)O)NC(=O)[C@H](CO)NC(=O)[C@@H](NC(=O)[C@H](Cc1ccccc1)NC(=O)[C@@H](NC(=O)CNC(=O)[C@H](CCC(=O)O)NC(=O)[C@H](C)NC(=O)CCc1c[nH]cn1)[C@@H](C)O)[C@@H](C)O)C(C)C)C(=O)N[C@@H](C)C(=O)N[C@@H](Cc1c[nH]c2ccccc12)C(=O)N[C@@H](CC(C)C)C(=O)N[C@H](C(=O)N[C@@H](CCCNC(=N)N)C(=O)NCC(=O)N[C@@H](CCCNC(=N)N)C(=O)N[C@@H](CCCCNC(=O)COCCOCCNC(=O)COCCOCCNC(=O)CC[C@H](NC(=O)CCCCCCCCCCCCCCCCC(=O)O)C(=O)O)C(=O)NCC(=O)NCC(=O)N[C@@H](CO)C(=O)N[C@@H](CCCCNc1c(NCCCCCN(O)C(=O)CCC(=O)NCCCCCN(O)C(=O)CCC(=O)NCCCCCN(O)C(C)=O)c(=O)c1=O)C(=O)O)C(C)C [zirconium-89 labelled]	–	gamma counting	rat, skin of neck	intravenous, 3 nmol/kg, 24 h	–	tissue uptake	0.31 %ID/g
COc1ccc(F)cc1C(=O)NCc1ccc(-c2nn([C@@H](C)C(F)(F)F)c(N)c2C(N)=O)cc1	–	–	human, plasma	oral, 200 mg once daily, added: intravenous midazolam	–	tmax	3 h
O=S(=O)(Nc1ccccc1)c1ccc(NC(=S)Nc2ccccc2)cc1	–	measured: MO%	female mouse, blood	oral, 20 mg/kg daily, 14 days	–	blood cell fraction	2.52%
Clc1cc(-c2ccc(Cl)c(Cl)c2Cl)cc(Cl)c1Cl	–	–	PDMS-water partitioning	PCB compilation	baseline: maximum over minimum K	literature range factor	1.4
CC(C)CN1CCc2ccc(Br)cc21	Plasmodium falciparum	–	HB3	–	–	IC50	12.6 µM
CCc1ccc(CC/C=C/c2ccc3c(c2)C(=O)CC3)cc1	–	–	Sprague-Dawley rat, male	oral, 30 mg/kg/day, 14 days	–	CHCM	315 g/L
CN1CC[C@@H](c2c(O)cc(O)c3c(=O)cc(-c4ccc(C(F)(F)F)cc4Cl)oc23)[C@@H]1CO	–	measured: Dizziness	AML	oral, 100 mg, intermittent dosing	–	patients with adverse event	0%
Cc1ccc2cc(N3CCC4(O)C(=O)c5cc(C)c(C)cc5N=C34)ccc2n1 (centres unmarked)	–	rotarod	mice	10 mg/kg	–	motor learning and memory	no effect
[O-][S+]1CCc2nc(N3CCC(c4ncc(Cl)cn4)CC3)nc(NC3(CO)CCC3)c21 (centres unmarked)	–	measured: mean	idiopathic pulmonary fibrosis patients, blood	18 mg twice daily, at last treatment	–	C-reactive protein, high-sensitivity	6 mg/L

Repeated from above:
Compound	target or system	assay	test system	conditions	scale	endpoint	result
COc1ncccc1-c1cnn2ccc(N3CCN(C(=O)OC(C)C)CC3)nc12	–	–	mouse nerve ligation model, plasma	oral, 3 mg/kg, 30 min after last dose, repeat dosing day 2	–	drug concentration	3.5 µM
CN1CC[C@@H](c2c(O)cc(O)c3c(=O)cc(-c4ccc(C(F)(F)F)cc4Cl)oc23)[C@@H]1CO	–	measured: Dizziness	AML	oral, 100 mg, intermittent dosing	–	patients with adverse event	0%
